Measured values collected from several papers.
Every numbered part comes from another study and shows a few of its results, in no order.

Sample 1
Target: Fragile X messenger ribonucleoprotein 1, C-terminal low-complexity region (Fmr1, Mus musculus, UniProt P35922)
Technique: RNA Bind-n-Seq
Form: RNA
Medium: in vitro
Tested at: 200 nM
Setting: whole 134-nt RNA, ends assumed
With: 150 mM LiCl
Relative to: input library
Reading: higher = stronger binding
Library: 7-deaza-guanosine replaces G
Constant ends, left off below: GGGAGUUCUACAGUCCGACGAUC … UGGAAUUCUCGGGUGUCAAGG
Oligonucleotide	log2 enrichment
CCUCAAGUCCUGUGCUACACAUCGUAUGUACCGAAUCGGGAGGGGAGGGAGGGAAAGUAUUAUGUUACGCCGUUCGGAUCUGCACUUCCA	-1.09
GCAGGAAGUAAAAACAAAUGGAAAUGCGUCGGAUAGUGGCAGGGGUGGGGGUUGCUAAGGAAAGGGUGGGAUGGGAGUGGGUAAAGAGUU	1.32
UAACUUUAGAGGAGGAUCUGAUGGAUAUGGCAGUGGACGUGGAUUUGGGGAUGGCUAUAAUGGGUAUGGAGGAGGACGUGGAGGUGGCAA	0.847
GUCCUGUGCUACACAUCGUAUGUACCGAAUCGGUUUUUGGGGUUUUUGGGUUUUUGGGAAAGUAUUAUGUUACGCCGUUCGGAUCUGCAC	-0.703
CCUGUGCUACACAUCGUAUGUACCGAAUCGGGGCCCCCCGGGCCCCCCGGGGCCCCCCGGAAAGUAUUAUGUUACGCCGUUCGGAUCUGC	-2.57
UGUGAGCGGAGCCUGGAGGAGCUGCUGCACUACGUGGGCCAGCUGCGGGCUGAGCUGGCCAGCGCAGGUGGGUGGCCACCCUUGCAAGUG	-1.13
GCAGGAAGUAAAAACAAAUGGAAAUGCUUCGGAUAGUGGCCGGGGUGGGGGUUGCUAAGGAAAGGGUGGGAUGGGAGUGGGUAAAGAGUU	1.56
CCUCAAGUCCUGUGCUACACAUCGUAUGUACCGAAUCGGGGUGGGGUGGUGGGAAAGUAUUAUGUUACGCCGUUCGGAUCUGCACUUCCA	-0.836
CUCAAGUCCUGUGCUACACAUCGUAUGUACCGAAUCGGUUGGGUUGGGUUGGGAAAGUAUUAUGUUACGCCGUUCGGAUCUGCACUUCCA	0.132
AGUCCUGUGCUACACAUCGUAUGUACCGAAUCGGGAAAAAAAGGGUUUGGGUUUGGGAAAGUAUUAUGUUACGCCGUUCGGAUCUGCACU	-2.29
GUCCUGUGCUACACAUCGUAUGUACCGAAUCGGGGAAAAAGGGGUUUUUGGGGAGGGGAAAGUAUUAUGUUACGCCGUUCGGAUCUGCAC	-0.761

Sample 2
Cell line: yeast with cyclin A1-Cln2 chimera
Read-out: cell growth
Mode: binder
Technique: competitive growth deep sequencing
Form: peptide
Tested at: concentration not given
Setting: peptide tiling library
Reading: direction not given
Molecule	growth enrichment score
RSLKLDGLLEEN	-0.567
EAAPPTQEAQGETEPT	0.353
EPKTLFLGAGDFQF	0.412
LRRKLFLDGNGSIS	-0.121
VEEEFFALRKRTPSAG	0.92
KPKPVKPVTFSTGIKM	-0.715
RDLFDCDFGDLTPLDF	-0.0161
IQKKLRFEDTLEFVGF	0.0385
GLPDFVFQQQPVESEA	0.67
QYQVVDDIVSKLVFDF	0.0469
KPHVSDEEEEEPPFYH	0.666
AKRSLGFLPQPVPL	0.509
ALLRRLQDVANDRGSH	0.526
ARKRLELGNLGNPQ	-0.746

Sample 3
Target: RNA binding protein fox-1 homolog 2, RRM domain, GST-SBP tag (RBFOX2, Homo sapiens, UniProt O43251-10, residues 100-194)
Technique: RNA Bind-n-Seq
Form: RNA
Medium: in vitro
Tested at: 365 nM
Setting: natural RNA segment, single round, ends assumed
Relative to: no-protein control
Reading: higher = stronger binding
Constant ends, left off below: GGGAGUUCUACAGUCCGACGAUC … UGGAAUUCUCGGGUGCCAA
Construct (chain): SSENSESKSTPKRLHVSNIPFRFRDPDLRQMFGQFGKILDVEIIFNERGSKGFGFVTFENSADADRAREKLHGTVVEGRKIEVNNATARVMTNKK
Oligonucleotide	RBNS enrichment (R)
AGGAGAAAGGCGGGGAAGCUUCCUCAGCCUUGCAGAUAUGUGUGGCAUUUACUAGCCAGAGCUCUGAAAGGCAGUGCUGUCUGUUUCUUGUACUGGGACCAAAGUAAAAA	0.308
CGCCACUCUGUCCUCCGACUCAGGUGAGGGGGCAGCCCACAGACCUGCUCCUCAGUAGCAGGGCCUGGCCAGGCCCCUGCUGUUCUCAGCCUCAGUUUGCCAUCUAUGAA	0.173
UGCAAUAGCCCCCCUGCAACACUGCAAUAAUCCUUCAGUGUCUCCCCUGGGCUCAAUUCACUUCCUUAUUUGACAAAGUGGAGGUGAGACUUGUAUUCUUAAAAUUGGAG	0.276
GUACUCUCUGCAUUGUCCAAAUGUCUUACUUUAAGGUGUUUCUUCUGUCUUUUCGACUAAGUAGUAUUGUCAAGAUAAUGGGGCCUGUGACUUGAAUGGAUAGAAUAGAA	3.51
AUUUGAUUUUUACAAUUAUUCUCUUCUAACCAAUGAAGUGUUUGUCAGUAUGCCCCAAAGCUUGCUCUUUUGUGCUCCCUUUUGAAUAACUUUCUAUCCAGAAAAAGAGA	1.49
UUCAGUAUGUGUAACUUGAAGCUAAUUUGUACUACUGGAUAUCUGACUGGAGCCACAGAUACAGAAUCUGUAUUGUUCUUACUGAAACACAGCAUGGAAUUAACAUUAAA	0.806
CCUGACAUGUGUUUAAUAUUCCUCCUGCUUUUACAGAUUCUGACGUUUUCUUGAUAAUUGUAAGCUUGAGAGUGUUUGUGGAAGAACUUACUUUCUUCUUAUGUAUACAU	0.491
UAUAACUUGAAUUUUAAAGAUAGUAGCAUUUUGAAGAUGCUUAAUAACCUUUUUAGGAAUAUGGAGAUAAAGAUUGUUUUUCUGAUUUUCUUCCAUCUGAAGUUUGACUU	0.351
CUCCCACUUUUUACAAUGUCUAGUCAUUUUCAUAGUGCCCCACAUUCAAGAACCAGACAACAGGAUGCCUUAGAAGCUGGCUGGGUUUUGGGUCAGGGGCUCAGUAUGAG	2.19
CUAAAGCCGAUGUUUUGCCCUCUUUGGAAAGACUGAGAACUGUGGCCUGAUUUCGUCCAUAUUCUAGACUCUUAAGCUUGUCAAAUUCCAGAAAUGGAAAAAACUCUGCA	10.8
GCCAGGGCGUGGCCUCCCCAAGGCUGUGGUGCCCCUUCUGGCUCCCCCAGGUCAGGUCCGCGCCCUUUAAAUUGGCCGCUUGGCUUUUGCCUUUGGUCCUCUUGGACAGA	0.31
UUUCAUUGUCACACCAAAUAACCAGUUGGACAAUAUUGCAUUUUCAAAAUGGAGAGUUAUUUAAAGUGGAUGUGUAGCCUUCUGGAAUCUGCACGUGACUGGCAUUUUAA	2.91

Sample 4
Target: Centromere-binding protein 1, full length, His-tagged (CBF1, Saccharomyces cerevisiae, UniProt P17106, residues 1-351)
Sequence of UniProt P17106 (whole entry, looked up): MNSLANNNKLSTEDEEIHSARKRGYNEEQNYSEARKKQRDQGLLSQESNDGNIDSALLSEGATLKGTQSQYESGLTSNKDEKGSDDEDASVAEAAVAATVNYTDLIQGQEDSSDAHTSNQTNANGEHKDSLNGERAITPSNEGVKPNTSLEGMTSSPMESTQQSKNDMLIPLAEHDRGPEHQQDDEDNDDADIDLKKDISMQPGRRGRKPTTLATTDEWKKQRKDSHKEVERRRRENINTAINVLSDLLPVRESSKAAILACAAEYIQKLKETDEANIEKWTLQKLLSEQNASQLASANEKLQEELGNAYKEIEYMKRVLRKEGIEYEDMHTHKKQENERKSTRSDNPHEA
Technique: competition protein-binding microarray
Form: double-stranded DNA, one strand shown
Medium: in vitro
Tested at: 2 µM
Setting: whole 60-bp probe, lowest competitor level
With: Pho4 competitor, 0.05 µM
Reading: higher = stronger binding
Constant ends, left off below: … GTCTTGATTCGCTTGACGCTGCTG
Oligonucleotide	fluorescence intensity [a.u.]
TGCGCAACAACTTTTCACGTGCCATTATGTCTAGAA	1740
AAAGCGGTAATTTGTATTGTGGGTGCAGATATCTAT	78.4
AAGAATGTCATATTCTTCGTGACGGATGGGATGGGA	62.6
GTCTTGTCTCATTGAGCGGTGGGTGTCCCCACTTCA	75.6
CGTCCTAGTGATTTTCACGTGTCCTCCATGAGGAAG	1200
TGCAAATATCGAAAGCACGTTTTTACTCAGCCCGTC	273
ATTCTCTATTTGTATCGCATGCGCGGTCGCTGTTCT	82.8
GTCTTGTCTCATTGTCACAATACTTTCCCCACTTCA	101
CACAATGTGCGGAATCACCTGCCTGTTTCAATAATG	176
TGCGCAACAACTTGTCACAGGACTTTATGTCTAGAA	125
TTTCTTCGACACCATCACGTAAAACAACAACCAGGA	81.9
CTTCTGTAAATTTGGTGCGTGGGTGGACGCGCCCCG	68.3
TCAAGATTGGTGGCGCTCGTGAAATAATGCCATTGC	81.3
CTCTTAAGCGCAGGCCACGTGCAGACATCGCTTTCG	1360
GGGCCCGCCCTGGGCCACGTGTTGCCTGCGGACCCG	719
CTCGTTACTACCCATCACGTGTCGGATCCCTCGCGA	3850
GTTACAAGACTTCACCACGTTAATAGCGATCTGGCT	66.4
ATCCTCCTTAGTGGGCATGTGCTCTAGGAATGCAGA	166
CGATGGATATATTGTCATGCGGATGCATTTTGGCTG	205
CCGGTGTTGCCCCATTCCGTGGGTATATCAGAGAGC	66
CATACCCAACCTTGCATGGTGGGTGAAGATATTTGT	74.5
GTATGCCTAAGGAAGCATGTGACAGGTATGCCCACT	833
CTTTCCCGATCTTTTCACGTGACATTAGCACATTTG	5440
AGGATCGTTGAGTACAGCGTGGGTAAATTTTTAGCG	79.3
AAAGCGGTAATTTGGTGAGTGGGTGCAGATATCTAT	84.7

For quick reference, copied from above (sample 4):
Oligonucleotide	fluorescence intensity [a.u.]
CTTCTGTAAATTTGGTGCGTGGGTGGACGCGCCCCG	68.3
TCAAGATTGGTGGCGCTCGTGAAATAATGCCATTGC	81.3
CTCTTAAGCGCAGGCCACGTGCAGACATCGCTTTCG	1360
GGGCCCGCCCTGGGCCACGTGTTGCCTGCGGACCCG	719
CTCGTTACTACCCATCACGTGTCGGATCCCTCGCGA	3850
GTTACAAGACTTCACCACGTTAATAGCGATCTGGCT	66.4
ATCCTCCTTAGTGGGCATGTGCTCTAGGAATGCAGA	166
CGATGGATATATTGTCATGCGGATGCATTTTGGCTG	205
CCGGTGTTGCCCCATTCCGTGGGTATATCAGAGAGC	66
CATACCCAACCTTGCATGGTGGGTGAAGATATTTGT	74.5
